Assay results pooled from the literature.
Compare with care: the assays were run in different laboratories. ± gives the spread as reported.

C[C@@H](O)[C@H](NC(=O)[C@@H]1CSSC[C@H](NC(=O)[C@@H](Cc2ccccc2)NC(=O)CCC(C(=O)O)N2CCN(CC(=O)O)CCN(CC(=O)O)CC2)C(=O)N[C@@H](Cc2ccc(O)cc2)C(=O)N[C@H](Cc2c[nH]c3ccccc23)C(=O)N[C@@H](CCCCN)C(=O)N[C@@H]([C@@H](C)O)C(=O)N1)C(=O)O (stereo partly shown) [copper-64 labelled]
internalisation increase (HCT116-SSTR2; 15 min to 4 h, 64Cu-labelled): 59%

COc1cc(CNC(=O)C[C@H](C)CCC=C(C)C)ccc1OCc1cn(-c2cccc(C(F)(F)F)c2)nn1
growth percent (SR leukaemia cells; SRB; 10 µM, 48 h): 41.5%

Cc1ccc(F)cc1NS(=O)(=O)c1cccc(/C=C/C(=O)NO)c1
relative potency (MOPC-315; cell growth; 24 h; relative to: belinostat): 0.835

CC(=O)N[C@H](C(=O)N[C@H](C(=O)N[C@@H](CCCNC(=N)N)C(=O)N1Cc2ccccc2C[C@H]1C(=O)N[C@@H](Cc1ccccc1)C(N)=O)C1CCCCC1)C(C)C
cytokine level (MBP-specific BC-3 T cells; Bio-Plex multiplex, item: IL-7; 200 µg/mL, 24 h, with: MBP87-99 antigen): < 3.7 pg/mL

CC1=CC(OC(=O)c2ccccc2)C2(COC(=O)c3ccccc3)CCC(=C(C)C)C2C(O)CC2(C)OC2CC1 (stereo not shown)
glucose consumption (HepG2, palmitic acid-induced insulin resistance; 2.5 µM, 24 h): 3.92 ± 0.61 mM

CC(C)(C)CC(C)(C)Nc1c(-c2ccc3c(c2)OCO3)nc2cnccn12
cell migration (CT26; scratch; 25 µM, 24 h; relative to: untreated): 44.4%

CC(=O)OC[C@H]1O[C@@H](Sc2sc(C(=O)c3ccc(Br)cc3)c(N)c2-c2nc3ccccc3s2)[C@H](OC(C)=O)[C@@H](OC(C)=O)[C@H]1OC(C)=O
growth percent (MDA-MB-231 breast cancer; SRB; 10 µM, 48 h): 80.6%

CCC(=C(c1ccc(Cl)cc1)c1ccc(OCCN2CCCCC2)cc1)c1ccc(OC)cc1
growth inhibition (NCI-60 tumour cell lines; 10 µM, mean over cell lines): 43.3%

Cc1cnc(NC(=O)c2cc(S(=O)(=O)N(C)C)ccc2N2CCCC2)s1
PTK7 and MET N-glycosylation (HCC827 and HCC827-GR; Western blot, item: PTK7, MET, STAT3 signalling; 10 µM, 24 h): decreased

COc1cc(CNC(=O)C[C@H](C)CCC=C(C)C)ccc1OCc1cn(-c2ccc([N+](=O)[O-])cc2)nn1
growth percent (OVCAR-3 ovarian cancer cells; SRB; 10 µM, 48 h): 108%

FC(F)(F)c1ccnc(-c2cc(C(F)(F)F)ccn2)c1.FC(F)(F)c1ccnc(-c2cc(C(F)(F)F)ccn2)c1.[Cl-].[Cl-].[Ru+2].c1csc(-c2ccc(-c3ccc(-c4nc5c6cccnc6c6ncccc6c5[nH]4)s3)s2)c1
phototherapeutic index (SK-MEL-28; cell viability; normoxia, with: red light 633 nm, 100 J/cm2; relative to: dark EC50 over light EC50): 28

COc1cc(CNC(=O)C[C@H](C)CCC=C(C)C)ccc1OCc1cn(-c2ccccc2F)nn1
growth percent (SR leukaemia cells; SRB; 10 µM, 48 h): 73.4%

N#Cc1ccc(-c2cn([C@@H]3O[C@H](CO)[C@@H](O)[C@H]3O)c3ncnc(N)c23)cc1
EC50 (HEK; cytotoxicity): > 200 µM

COc1cc(CNC(=O)C[C@H](C)CCC=C(C)C)ccc1OCc1cn(-c2ccccc2)nn1
growth percent (HOP-62; SRB; 10 µM, 48 h): 120%

COc1c(O)c(-c2c(O)c(OC)c(OC)c3c2ccc2cc(O)ccc23)c2c(c1OC)-c1ccc(O)cc1CC2
viability (U-87 MG; cell growth or viability, CCK-8; 100 µM, 24 h): 11.9%

COc1cc(CNC(=O)C[C@H](C)CCC=C(C)C)ccc1OCc1cn(-c2ccccc2[N+](=O)[O-])nn1
growth percent (SR leukaemia cells; SRB; 10 µM, 48 h): 45.1%

S=C(N/N=C/c1ccc(-c2ccccc2)s1)Nc1ccccc1
cytotoxic concentration (HEL human lung fibroblasts; altered cell morphology, microscopy; confluent cultures): ≥ 100 µM

COc1cc(CNC(=O)C[C@H](C)CCC=C(C)C)ccc1OCc1cn(-c2ccccc2Cl)nn1
growth percent (OVCAR-4 ovarian cancer cells; SRB; 10 µM, 48 h): 33.3%

COc1cc2c(OC3OCC(OC)C(OC)C3OC(=O)c3ccc(Br)cc3)c3c(c(-c4ccc5c(c4)OCO5)c2cc1OC)C(=O)OC3 (stereo not shown)
E-cadherin expression (CAL-27 and FaDu; western blot and RT-qPCR, item: E-cadherin mRNA and protein; 0.1, 1, 2 µM, 36 h, with: bafilomycin A1 0.1 µM): no effect

A few entries again:
COc1cc2c(OC3OCC(OC)C(OC)C3OC(=O)c3ccc(Br)cc3)c3c(c(-c4ccc5c(c4)OCO5)c2cc1OC)C(=O)OC3 (stereo not shown)
E-cadherin expression (CAL-27 and FaDu; western blot and RT-qPCR, item: E-cadherin mRNA and protein; 0.1, 1, 2 µM, 36 h, with: bafilomycin A1 0.1 µM): no effect

C[C@@H](O)[C@H](NC(=O)[C@@H]1CSSC[C@H](NC(=O)[C@@H](Cc2ccccc2)NC(=O)CCC(C(=O)O)N2CCN(CC(=O)O)CCN(CC(=O)O)CC2)C(=O)N[C@@H](Cc2ccc(O)cc2)C(=O)N[C@H](Cc2c[nH]c3ccccc23)C(=O)N[C@@H](CCCCN)C(=O)N[C@@H]([C@@H](C)O)C(=O)N1)C(=O)O (stereo partly shown) [copper-64 labelled]
internalisation increase (HCT116-SSTR2; 15 min to 4 h, 64Cu-labelled): 59%
